Measured values from different studies.
Numbered parts are unrelated; each lists some results of a single study. Positions count from the first letter of the parent shown.

Study 1
Target: CCNB3, cyclin fold, Cln2 fusion (human)
Technique: yeast growth competition, sequencing
Sample: yeast
Notes: weak parent motif
Relative to: not given
Direction: higher = stronger binding
Starting sequence: WEE1 docking peptide (human); CTLRQKLIFSPCS; partner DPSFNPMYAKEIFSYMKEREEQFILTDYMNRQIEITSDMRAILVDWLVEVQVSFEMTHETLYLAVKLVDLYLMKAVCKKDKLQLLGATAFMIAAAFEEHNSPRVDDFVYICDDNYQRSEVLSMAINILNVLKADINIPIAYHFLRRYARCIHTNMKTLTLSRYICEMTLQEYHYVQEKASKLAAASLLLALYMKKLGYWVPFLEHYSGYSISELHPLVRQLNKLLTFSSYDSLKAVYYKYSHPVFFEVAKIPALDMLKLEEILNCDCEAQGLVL
| Substitution | normalised enrichment score |
| --- | --- |
| CTLRQKLIFSPCA [S13A] | 0.167 |
| CTLRQKLIFAPCS [S10A] | 0.107 |
| CTARQKLIFSPCS [L3A] | 0.101 |
| CTLRQKLIFSPAS [C12A] | 0.251 |
| ATLRQKLIFSPCS [C1A] | 0.141 |
| CTLRQALIFSPCS [K6A] | 0.405 |

Study 2
Target: ABI1, truncated, D143A, DHFR fusion (Arabidopsis thaliana, UniProt P49597)
Technique: DHFR PCA, dose-response
Sample: yeast
Notes: Hill fit, mean, not affinity
Together with: (+)-ABA, dose series
Direction: lower = more sensitive
Starting sequence: PYL1, truncated, DHFR fusion (Arabidopsis thaliana, UniProt Q8VZS8); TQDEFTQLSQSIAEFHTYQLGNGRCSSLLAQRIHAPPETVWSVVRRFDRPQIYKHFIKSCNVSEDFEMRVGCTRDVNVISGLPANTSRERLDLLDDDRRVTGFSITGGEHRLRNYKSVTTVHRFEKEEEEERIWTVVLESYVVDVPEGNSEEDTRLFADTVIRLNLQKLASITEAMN
| Substitution | ABA EC50 [µM] |
| --- | --- |
| E131Y | 4.93 |
| L112V | 325 |
| F15L | 13.6 |
| R163H | 15.9 |
| G148M | 17.1 |
| E152K | 5.67 |
| E174Q | 2.52 |
| F5T | 4.05 |
| S27G | 2.65 |
| T17I | 21.5 |
| R163I | 38.4 |
| F124P | 52.1 |
| R69A | 1.94 |
| V145I | 2.96 |
| L138Y | 63.7 |
| Y18E | 20.6 |
| F66N | 8.31 |
| M68V | 2.86 |
| F15T | 79.3 |
| L8C | 5.4 |
| R132T | 1.02 |

Study 3
Target: RING finger protein unkempt homolog, zinc fingers 1-6, GST-SBP tag (UNK, Homo sapiens, UniProt Q9C0B0, residues 30-357)
Technique: RNA Bind-n-Seq
Form: RNA
Sample: in vitro
Tested at: not given
Notes: RNA with constant flanks, ends assumed
Relative to: input RNA pool
Direction: higher = stronger binding
Shared flanks, not repeated: GGGAGUUCUACAGUCCGACGAUC … CAACAGAGGAUUGAGCAUCA
Target sequence (chain): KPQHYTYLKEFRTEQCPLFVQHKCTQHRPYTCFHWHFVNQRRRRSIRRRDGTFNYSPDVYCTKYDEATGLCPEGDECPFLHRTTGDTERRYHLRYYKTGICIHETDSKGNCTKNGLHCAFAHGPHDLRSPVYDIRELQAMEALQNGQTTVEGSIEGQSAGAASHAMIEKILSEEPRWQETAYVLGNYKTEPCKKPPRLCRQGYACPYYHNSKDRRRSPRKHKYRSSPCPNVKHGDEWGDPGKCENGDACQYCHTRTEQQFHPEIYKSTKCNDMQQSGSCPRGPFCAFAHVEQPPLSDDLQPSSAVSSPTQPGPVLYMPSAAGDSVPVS
| Oligonucleotide | bound/input enrichment [ratio] |
| --- | --- |
| GCUUCGACCCAGCUGAGGAGCGAAGAGCUGCUGGCAGCGCCGAUUCCCAGCACGCCGCUUUUCCGAACUUCAGUUGUCAAAAUGGGCAGAAUCUUUCUUGACCAUAUCGGUGGUACCCGU | 0.109 |
| GCAAAAGUUUAUGUCUCAUUGGAUCAACCUGUGACUGCUUUAAAUCUUUUCAAACAAGGCUCCGAUAAGUUUCCAGGAGAAGUAACCCUGCUCUGUGGAAUUGCAAGAAUCUAUGAGGAA | 0.142 |
| GUUUAGAAUUAAUGAAACAGUUGGCGUUCACUGUCAGCAGCAUAGUGUGAUUUUGAAUGAAUCCGGCAGGAAUUCAAGAUUACUACUCUUAGCUCGCUCGCUCUCUCUCUCUCUCCACCG | 1.66 |
| ACACCCACGAUCCAGUGUCUGCUUUACCUAUUUAUUUUUUAAGUUUUUUUAACGUCUGCUUUCCGAAGUGGAGCUUUGACAGGGUGUUUGCUCGAUAGAAAGGCAGCCUCUGUCCUUAAG | 4.75 |
| AUUCAAAAGGCAGUGGCAGUUUCAUAGGACAGGUACAAGCAACAUCUUUUUUGGGUCCUACCGUUACAGGAUAACUUCUUCAAGAGUUUCUCCAGCCACAUCCUUUGUUUUUCUGAACCC | 0.19 |
| GAUCUUGGACUUGAUAUUGGUGCCCAGGGAGAACCCCUUGGAUAUCGCCAGGAUGAUCCCCGCUAUCGUUCUUUUCACUCUGGUGGAUAUGGCCAGGAUGCCUUGGGUAUGGACCCCAUG | 0.0917 |
| AUGAUCCAACUCAAUGGAUGUCAGCCCAUGGAGAUCAAAGUGCUGGGUCCUUAUACCUUCCGUAUCUGUGACACUUCCAACUUCUCUGACUACAUCCGUGGAGGCAUCGUCAGUCAGGUC | 0.0903 |
| AUCAAACAUUACUUCAGUAUAGUUCCAGGAAAUGUGAGUUCUUCUCCCAGAUCUUCUGAUUCCGUCAAAUUAGCCCAAGAGUGCUGUUACCAUAAUAACAGGGGCAUUGCAGCUCAUGGA | 0.302 |
| AAAGGAGAGAAGAAGGAGAAAAAACAGCAAUCAAUAGCUGGAAGUGCCGACUCUAAGCCAACCGAUGUUUCCCGUCUGGAUCUUCGAAUUGGUUGCAUCAUAACUGCUAGAAAACACCCU | 0.182 |
| UAUCUUAUAUCACCUCUAGAUUUUGUACCUGAAGCCUUGUUUGGAAUUCUAGGCUUUCCCGAUGAUUUCUUUGUCAUCUUUUUAUUGCUUAUCUACAUCUCUAUUAUGUAUCGAGAAGUG | 1.83 |
| UCCACCAAGAGCCUCUUCCUCGGCCAGAAGCUGAACCUUAUUCACAGUGAAAUCAGUAAUUCCGCCGGCUUUGAGGUGGAGGCCAUAAUCAAUCCUACCAAUGCUGACAUUGACCUUAAA | 0.123 |

Study 4
Target: Histone acetyltransferase KAT6A, winged helix 2, GST fusion (KAT6A, Homo sapiens, UniProt Q92794, residues 85-181)
Technique: protein binding microarray
Form: double-stranded DNA, one strand shown
Sample: in vitro
Tested at: not given
Notes: 8-mer, flanks averaged, mean of 2 arrays, mostly near background
Relative to: not given
Direction: higher = stronger binding
Residues (chain): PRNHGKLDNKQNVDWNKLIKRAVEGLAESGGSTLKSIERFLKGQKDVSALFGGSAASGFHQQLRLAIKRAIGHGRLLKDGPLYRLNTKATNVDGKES
| Oligonucleotide | E-score |
| --- | --- |
| AGAGAGTG | -0.154 |
| ACATTATC | -0.0617 |
| TGGCGAAA | 0.133 |
| AAAATGGG | -0.12 |
| ATAGCTTC | -0.0257 |
| ATGACGAG | 0.0708 |
| GCCACATA | -0.00137 |
| GACATAGA | -0.0988 |
| CAAGATAC | -0.0853 |
| CATTTCAG | 0.109 |
| ATGCTCTG | 0.108 |
| CGCGTTTC | -0.0838 |
| CACCCAGG | 0.0243 |
| AACGAAAG | 0.0852 |
| ACGTTTCA | -0.0469 |
| ATCAACAA | 0.13 |
| GGGCATGA | -0.131 |
| AGCCCGAG | 0.121 |
| AACCAGCG | 0.0954 |
| AGTGCTGG | 0.0245 |
| CAGAGGAC | -0.0236 |
| ACGTGTCG | -0.209 |

Study 5
Target: UBE2Z UBC core domain (UniProt Q9H832)
Technique: yeast two-hybrid
Sample: yeast
Notes: mostly zero background
Relative to: not given
Direction: higher = stronger interaction
B1: RNF175 RING domain (UniProt Q8N4F7); chain LPTRSLSDNICAVCGQKIIVELDEEGLIENTYQLSCNHVFHEFCIRGWCIVGKKQTCPYCKEKVDLKRMIS
B2: RNF14 RING domain (UniProt Q9UBS8); chain IKCFNSKLFLCSICFCEKLGSECMYFLECRHVYCKACLKDYFEIQIRDGQVQCLNCPEPKCPSVATPGQVK
B3: TRIM35 RING domain (UniProt Q9UPQ4); chain PSRSFKEELLCAVCYDPFRDAVTLRCGHNFCRGCVSRCWEVQVSPTCPVCKDRASPADLRT
B4: PHF7 RING domain (UniProt Q9BWX1); chain IQHGHVGEESCILCCEDLSQQSVENIQSPCCSQAIYHRKCIQKYAHTSAKHFFKCPQCNNRKEFPQEML
B5: TRIM52 RING domain (UniProt Q96A61); chain PMQTLQEEAVCAICLDYFKDPVSISCGHNFCRGCVTQLWSKEDEEDQNEEEDEWEEEEDEEAV
B6: RNF5 RING domain (UniProt Q99942); chain ERGGAGATFECNICLETAREAVVSVCGHLYCWPCLHQWLETRPERQECPVCKAGISREKVVP
B7: RNF150 RING domain (UniProt Q9ULK6); chain DKETESDFDNCAVCIEGYKPNDVVRILPCRHLFHKSCVDPWLLDHRTCPMCKMNILKALGIP
B8: TRIM55 RING domain (UniProt Q9BYV6); chain TMDNLEKQLICPICLEMFTKPVVILPCQHNLCRKCASDIFQASNPYLPTRGGTTMASGGRFRCPSCRHEVVLDRHG
B9: MSL2 RING domain (UniProt Q9HCI7); chain LLPYFRQSLSCCVCGHLLQDPIAPTNSTCQHYVCKTCKGKKMMMKPSCSWCKDYEQFEENKQ
B10: UBE4A RING domain (UniProt Q14139); chain LQQQEEETYADACDEFLDPIMSTLMCDPVVLPSSRVTVDRSTIARHLLSDQTDPFNRSPLTMDQIRPNTELKEKIQRWLAERKQQKEQLE
B11: TRIM10 RING domain (UniProt Q9UDY6); chain SVTSLADEVNCPICQGTLREPVTIDCGHNFCRACLTRYCEIPGPDLEESPTCPLCKEPFRPGSFRP
Construct (chain): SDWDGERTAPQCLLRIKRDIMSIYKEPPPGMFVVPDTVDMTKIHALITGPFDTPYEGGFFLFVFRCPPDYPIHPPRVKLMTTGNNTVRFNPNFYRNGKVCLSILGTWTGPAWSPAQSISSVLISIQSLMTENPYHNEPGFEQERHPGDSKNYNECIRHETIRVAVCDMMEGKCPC
| Sequence | lacZ reporter activity |
| --- | --- |
| B1 (RNF175 RING domain) | 0 |
| QLQDEEDDSLCRICMDAVIDCVLLECGHMVTCTKCGKRMSECPICRQYVVRAVHVF (RNF34 RING domain (UniProt Q969K3)) | 0 |
| B2 (RNF14 RING domain) | 0 |
| B3 (TRIM35 RING domain) | 0 |
| B4 (PHF7 RING domain) | 0 |
| B5 (TRIM52 RING domain) | 0 |
| B6 (RNF5 RING domain) | 0 |
| B7 (RNF150 RING domain) | 5190 |
| B8 (TRIM55 RING domain) | 0 |
| LKQVSIRENCCSLCCDEVADTQLKPCGHSDLCMDCALQLETCPLCRKEIVSRIRQI (RSPRY1 RING domain (UniProt Q96DX4)) | 0 |
| SYEDKSNDFVCPICFDMIEEAYMTKCGHSFCYKCIHQSLEDNNRCPKCNYVVDNIDHLY (COP1 RING domain (UniProt Q8NHY2)) | 0 |
| B9 (MSL2 RING domain) | 0 |
| ISNDSETLEECMVCSDMKRDTLFGPCGHIATCSLCSPRVKKCLICKEQVQSRTKIE (MIB1 RING domain (UniProt Q86YT6)) | 0 |
| B10 (UBE4A RING domain) | 0 |
| B11 (TRIM10 RING domain) | 0 |

Study 6
Target: HLF, bZIP domain (human)
Technique: DHFR protein complementation
Sample: yeast
Notes: single substitutions, most at no-binding floor
Relative to: wild-type JUN-FOS pair
Direction: higher = stronger binding
Starting sequence: JUN, bZIP domain (human); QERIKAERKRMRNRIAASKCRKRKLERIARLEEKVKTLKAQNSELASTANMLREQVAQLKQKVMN; partner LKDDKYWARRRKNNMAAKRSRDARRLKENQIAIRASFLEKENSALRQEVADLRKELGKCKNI
| Substitution | binding fitness [natural log] |
| --- | --- |
| L45E | -1.59 |
| T48R | -1.37 |
| Q55R | -1.38 |
| K36D | -1.39 |
| A46E | -1.43 |
| S43T | -1.15 |
| N42Q | -1.5 |
| L31D | -1.36 |
| K34E | -1.27 |
| A29H | -1.41 |
| E44N | -1.57 |
| A49G | -1.4 |
| R30S | -1.45 |

Repeated from above (study 5):
| Sequence | lacZ reporter activity |
| --- | --- |
| ISNDSETLEECMVCSDMKRDTLFGPCGHIATCSLCSPRVKKCLICKEQVQSRTKIE (MIB1 RING domain (UniProt Q86YT6)) | 0 |
| B4 (PHF7 RING domain) | 0 |
| B10 (UBE4A RING domain) | 0 |
| B5 (TRIM52 RING domain) | 0 |
| LKQVSIRENCCSLCCDEVADTQLKPCGHSDLCMDCALQLETCPLCRKEIVSRIRQI (RSPRY1 RING domain (UniProt Q96DX4)) | 0 |
| B11 (TRIM10 RING domain) | 0 |
| B6 (RNF5 RING domain) | 0 |
| B2 (RNF14 RING domain) | 0 |
| B1 (RNF175 RING domain) | 0 |
